Assay results pooled from the literature.
Every numbered part comes from another study and shows a few of its results, in no order. “And” joins repeats or separate records; there may be more than shown.
Chain of UniProt O95835 (whole entry, looked up): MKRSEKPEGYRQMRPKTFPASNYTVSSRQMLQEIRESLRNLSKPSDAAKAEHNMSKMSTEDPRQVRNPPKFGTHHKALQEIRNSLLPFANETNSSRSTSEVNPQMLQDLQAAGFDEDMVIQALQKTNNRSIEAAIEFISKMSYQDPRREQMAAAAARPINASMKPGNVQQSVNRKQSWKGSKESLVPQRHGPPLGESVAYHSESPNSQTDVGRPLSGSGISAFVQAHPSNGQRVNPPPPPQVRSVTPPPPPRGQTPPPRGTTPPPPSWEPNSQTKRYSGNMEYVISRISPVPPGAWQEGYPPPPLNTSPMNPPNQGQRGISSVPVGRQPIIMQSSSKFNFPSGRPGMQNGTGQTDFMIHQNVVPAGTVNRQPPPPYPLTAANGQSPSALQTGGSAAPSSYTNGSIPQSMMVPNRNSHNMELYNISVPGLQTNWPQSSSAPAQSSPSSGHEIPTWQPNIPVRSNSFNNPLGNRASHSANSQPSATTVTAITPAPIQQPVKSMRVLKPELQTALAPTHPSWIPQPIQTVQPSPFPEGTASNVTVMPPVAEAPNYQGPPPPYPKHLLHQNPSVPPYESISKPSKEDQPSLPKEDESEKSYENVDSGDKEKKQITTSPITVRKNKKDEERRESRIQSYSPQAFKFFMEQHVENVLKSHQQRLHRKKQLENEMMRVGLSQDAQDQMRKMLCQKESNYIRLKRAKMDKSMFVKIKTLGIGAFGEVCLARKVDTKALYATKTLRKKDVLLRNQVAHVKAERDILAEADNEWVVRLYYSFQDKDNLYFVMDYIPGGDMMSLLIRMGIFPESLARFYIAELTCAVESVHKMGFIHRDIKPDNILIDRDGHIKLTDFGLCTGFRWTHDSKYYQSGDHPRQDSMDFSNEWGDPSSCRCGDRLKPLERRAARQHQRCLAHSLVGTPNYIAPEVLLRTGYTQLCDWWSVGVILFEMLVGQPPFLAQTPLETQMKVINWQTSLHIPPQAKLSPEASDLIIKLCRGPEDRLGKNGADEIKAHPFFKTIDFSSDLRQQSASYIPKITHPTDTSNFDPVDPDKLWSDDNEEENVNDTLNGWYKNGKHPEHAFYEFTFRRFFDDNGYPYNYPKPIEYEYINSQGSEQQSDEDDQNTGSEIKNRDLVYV
Chain of UniProt P10721 (whole entry, looked up): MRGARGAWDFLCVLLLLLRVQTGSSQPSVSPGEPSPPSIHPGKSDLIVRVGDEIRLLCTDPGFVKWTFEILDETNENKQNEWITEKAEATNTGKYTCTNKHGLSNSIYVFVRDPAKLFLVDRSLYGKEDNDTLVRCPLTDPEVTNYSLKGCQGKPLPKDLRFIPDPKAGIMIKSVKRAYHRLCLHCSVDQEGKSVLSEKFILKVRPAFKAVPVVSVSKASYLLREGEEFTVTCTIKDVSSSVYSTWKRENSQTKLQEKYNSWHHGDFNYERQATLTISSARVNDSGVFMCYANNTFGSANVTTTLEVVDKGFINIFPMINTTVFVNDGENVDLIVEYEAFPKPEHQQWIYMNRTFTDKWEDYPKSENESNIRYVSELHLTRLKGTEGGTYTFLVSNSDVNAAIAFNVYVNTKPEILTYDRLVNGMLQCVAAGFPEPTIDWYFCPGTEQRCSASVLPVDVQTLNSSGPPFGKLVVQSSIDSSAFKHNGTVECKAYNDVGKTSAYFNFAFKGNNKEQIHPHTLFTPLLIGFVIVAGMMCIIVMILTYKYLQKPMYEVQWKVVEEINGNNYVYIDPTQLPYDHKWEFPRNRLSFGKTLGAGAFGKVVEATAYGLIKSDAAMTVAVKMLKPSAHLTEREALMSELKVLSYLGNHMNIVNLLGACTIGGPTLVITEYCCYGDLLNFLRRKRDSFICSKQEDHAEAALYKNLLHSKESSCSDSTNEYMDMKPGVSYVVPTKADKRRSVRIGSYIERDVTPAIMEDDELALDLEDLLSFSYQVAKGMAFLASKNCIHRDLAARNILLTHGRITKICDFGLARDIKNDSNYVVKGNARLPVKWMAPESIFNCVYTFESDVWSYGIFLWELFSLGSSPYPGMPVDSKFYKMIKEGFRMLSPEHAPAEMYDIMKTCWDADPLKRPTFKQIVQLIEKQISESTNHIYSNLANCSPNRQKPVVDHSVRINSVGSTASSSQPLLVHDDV

Sample 1
SMILES: C[C@@H]1CN(c2ccc(-c3cc(C(=O)NCCOCCOCCOCCOCCOCCOCCNC(=O)/C=C/c4[nH]cc(C(=O)N[C@@H](CC(N)=O)c5ccc(F)c(Cl)c5)c4-c4ccc(Cl)cc4F)ccc3F)cc2NC(=O)c2ccc(F)cc2C(F)(F)F)C[C@H](C)N1C
Observed: thermal unfolding
Method: differential scanning fluorimetry
Tested at: 5.5 µM
Reading: higher = more unfolded
WDR5: WD repeat-containing protein 5 (WDR5, Homo sapiens, UniProt P61964)
DCAF1: DDB1- and CUL4-associated factor 1 (DCAF1, Homo sapiens, UniProt Q9Y4B6)
Chain of UniProt Q9Y4B6 (whole entry, looked up): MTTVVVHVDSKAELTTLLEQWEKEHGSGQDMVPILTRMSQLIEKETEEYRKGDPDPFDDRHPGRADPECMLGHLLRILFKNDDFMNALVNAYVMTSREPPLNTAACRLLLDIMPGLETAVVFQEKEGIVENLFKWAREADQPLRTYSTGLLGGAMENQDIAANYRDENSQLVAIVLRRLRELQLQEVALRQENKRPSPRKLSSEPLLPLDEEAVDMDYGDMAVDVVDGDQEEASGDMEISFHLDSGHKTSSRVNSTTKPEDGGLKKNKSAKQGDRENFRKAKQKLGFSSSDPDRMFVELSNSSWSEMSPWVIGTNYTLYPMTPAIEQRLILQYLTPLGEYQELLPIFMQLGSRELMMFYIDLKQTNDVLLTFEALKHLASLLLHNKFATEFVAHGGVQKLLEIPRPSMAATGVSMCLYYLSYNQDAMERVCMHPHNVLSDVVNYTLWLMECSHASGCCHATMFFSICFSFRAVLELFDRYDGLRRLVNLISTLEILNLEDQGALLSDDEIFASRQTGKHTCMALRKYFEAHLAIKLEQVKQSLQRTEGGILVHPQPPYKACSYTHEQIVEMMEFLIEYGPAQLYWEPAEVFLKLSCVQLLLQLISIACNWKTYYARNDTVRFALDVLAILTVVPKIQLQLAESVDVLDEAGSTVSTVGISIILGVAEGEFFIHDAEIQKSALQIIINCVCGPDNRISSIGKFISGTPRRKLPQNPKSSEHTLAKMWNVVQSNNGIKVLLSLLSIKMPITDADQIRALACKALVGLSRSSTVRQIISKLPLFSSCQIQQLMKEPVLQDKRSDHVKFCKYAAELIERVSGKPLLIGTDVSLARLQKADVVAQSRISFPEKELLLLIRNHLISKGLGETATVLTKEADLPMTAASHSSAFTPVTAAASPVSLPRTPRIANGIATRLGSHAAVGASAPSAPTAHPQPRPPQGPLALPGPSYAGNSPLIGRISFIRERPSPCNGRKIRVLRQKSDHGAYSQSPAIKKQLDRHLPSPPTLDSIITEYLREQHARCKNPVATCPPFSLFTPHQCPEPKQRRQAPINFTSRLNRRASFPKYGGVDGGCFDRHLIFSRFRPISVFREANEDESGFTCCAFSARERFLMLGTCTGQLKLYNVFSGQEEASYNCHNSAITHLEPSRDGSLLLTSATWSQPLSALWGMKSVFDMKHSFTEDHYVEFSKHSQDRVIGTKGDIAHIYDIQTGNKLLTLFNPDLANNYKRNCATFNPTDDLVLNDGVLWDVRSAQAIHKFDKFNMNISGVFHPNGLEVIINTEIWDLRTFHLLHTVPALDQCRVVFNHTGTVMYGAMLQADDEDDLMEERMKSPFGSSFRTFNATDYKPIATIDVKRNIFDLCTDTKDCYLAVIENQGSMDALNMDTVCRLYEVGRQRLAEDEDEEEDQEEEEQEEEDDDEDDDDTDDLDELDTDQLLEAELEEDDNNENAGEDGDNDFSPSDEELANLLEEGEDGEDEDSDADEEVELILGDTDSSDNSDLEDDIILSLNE
| target | temperature | SYPRO Orange fluorescence [a.u.] |
| --- | --- | --- |
| WDR5 | 68.01 °C | 21700 |
| DCAF1 | 58.61 °C | 41300 |
| DCAF1 | 32.8 °C | 9220 |
| WDR5 | 39.4 °C | 14000 |
| DCAF1 | 38 °C | 11000 |
| WDR5 | 25.6 °C | 13200 |
| DCAF1 | 92.41 °C | 30500 |
| WDR5 | 30.2 °C | 13500 |
| WDR5 | 56.81 °C | 16000 |
| DCAF1 | 49.8 °C | 17900 |
| DCAF1 | 29.2 °C | 8180 |

Sample 2
SMILES: NCc1ccc(Cn2cc(Cc3cc(N)nc4[nH]nnc34)cn2)cc1
Target: Myeloperoxidase (MPO, Homo sapiens, UniProt P05164)
Chain of UniProt P05164 (whole entry, looked up): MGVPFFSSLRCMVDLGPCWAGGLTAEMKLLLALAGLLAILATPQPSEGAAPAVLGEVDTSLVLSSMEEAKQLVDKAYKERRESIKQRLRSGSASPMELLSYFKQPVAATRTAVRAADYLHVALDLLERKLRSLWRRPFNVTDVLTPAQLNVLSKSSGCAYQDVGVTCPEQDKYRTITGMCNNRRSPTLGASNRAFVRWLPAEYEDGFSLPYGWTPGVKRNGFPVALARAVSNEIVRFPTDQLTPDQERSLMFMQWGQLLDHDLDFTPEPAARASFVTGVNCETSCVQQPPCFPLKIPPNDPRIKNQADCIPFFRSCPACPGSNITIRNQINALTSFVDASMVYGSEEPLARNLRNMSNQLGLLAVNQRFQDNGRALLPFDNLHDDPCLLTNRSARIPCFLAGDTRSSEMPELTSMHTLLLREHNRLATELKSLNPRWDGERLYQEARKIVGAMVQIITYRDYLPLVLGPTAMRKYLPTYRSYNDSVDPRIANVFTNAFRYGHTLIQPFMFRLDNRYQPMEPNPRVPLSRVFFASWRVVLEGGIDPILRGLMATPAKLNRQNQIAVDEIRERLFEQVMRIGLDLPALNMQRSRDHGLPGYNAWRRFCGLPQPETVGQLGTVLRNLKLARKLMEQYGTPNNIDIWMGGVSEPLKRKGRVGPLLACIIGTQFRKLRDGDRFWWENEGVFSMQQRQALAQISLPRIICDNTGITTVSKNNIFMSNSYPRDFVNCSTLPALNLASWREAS
| observed | action | method | tested at | inhibition |
| --- | --- | --- | --- | --- |
| enzyme activity | inhibitor | fluorescence | 1.111 µM | 99.4% |
| enzyme activity | inhibitor | fluorescence | 30 µM | 100% |
| enzyme activity | inhibitor | fluorescence | 3.333 µM | 99.8% |
| H2O2 consumption | – | Amplex Red | 1.111 µM | 98.6% |
| H2O2 consumption | – | Amplex Red | 30 µM | 100% |
| enzyme activity | inhibitor | fluorescence | 0.3704 µM | 96.7% |
| H2O2 consumption | – | Amplex Red | 0.0005 µM | -7.6% and 7.02% |
| enzyme activity | inhibitor | fluorescence | 10 µM | 100% |

Sample 3
Target: Membrane-associated tyrosine- and threonine-specific cdc2-inhibitory kinase (PKMYT1, Homo sapiens, UniProt Q99640)
Chain of UniProt Q99640 (whole entry, looked up): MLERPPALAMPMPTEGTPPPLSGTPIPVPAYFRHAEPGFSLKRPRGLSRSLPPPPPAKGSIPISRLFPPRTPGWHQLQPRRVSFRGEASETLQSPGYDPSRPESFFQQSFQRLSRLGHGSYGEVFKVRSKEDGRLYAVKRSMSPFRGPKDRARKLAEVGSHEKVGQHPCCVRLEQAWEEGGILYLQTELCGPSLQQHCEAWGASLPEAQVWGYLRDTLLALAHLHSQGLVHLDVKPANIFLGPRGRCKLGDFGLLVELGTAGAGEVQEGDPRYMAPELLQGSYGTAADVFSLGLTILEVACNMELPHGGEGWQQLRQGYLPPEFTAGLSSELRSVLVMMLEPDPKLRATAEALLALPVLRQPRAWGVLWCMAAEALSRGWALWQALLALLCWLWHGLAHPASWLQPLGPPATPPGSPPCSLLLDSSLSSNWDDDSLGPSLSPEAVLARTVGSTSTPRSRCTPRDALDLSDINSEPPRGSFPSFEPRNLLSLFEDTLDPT
Observed: binding
Method: HTRF
Tested at: 0.051 nM
| Structure (SMILES) | inhibition |
| --- | --- |
| Cc1ccc(O)c(C)c1-c1cnc2[nH]c(-c3cnc(N4CCC(CCN5CCN(c6ccc7c(c6)C(=O)N(C6CCC(=O)NC6=O)C7=O)CC5)CC4)nc3)cc2c1C#N (racemic) | -0.024% and 0.329% |
| Cc1ncc(-c2cc3c(N)c(-c4c(C)ccc(O)c4C)cnc3[nH]2)cn1 | -4.33% and -10.4% |
| Cc1ccc(O)c(C)c1-c1cnc2[nH]c(-c3cnc(N4CCC(CN5CCN(c6c(F)cc(NC7CCC(=O)NC7=O)cc6F)CC5)CC4)nc3)cc2c1C#N (racemic) | -6.27% and -4.72% |
| Cc1ccc(O)c(C)c1-c1cnc2[nH]c(-c3cnc(N4CCC(CN5CCN(c6ccc(NC7CCC(=O)NC7=O)c(F)c6)CC5)CC4)nc3)cc2c1C#N (racemic) | 1.14% and -0.554% |
| Cc1ccc(O)c(C)c1-c1cnc2[nH]c(-c3cnc(N4CCC(CCN5CCN(c6ccc(N7CCC(=O)NC7=O)cc6F)CC5)CC4)nc3)cc2c1C#N | -5.49% and -3.21% |
| Cc1ccc(O)c(C)c1-c1cnc2[nH]c(-c3cnc(N4CCC5(CC4)CC(N4CCN(c6cc7c(cc6F)c(N6CCC(=O)NC6=O)nn7C)CC4)CO5)nc3)cc2c1C#N (racemic) | 0.517% and 5.87% |

Sample 4
SMILES: Cc1ncsc1-c1ccc(C(CO)NC(=O)C2CC(O)CN2C(=O)C(C(C)C)n2cc(-c3ccc(COc4c(-c5c(C)c(F)cc6[nH]ncc56)c(C5CC5)cc5c(N6CC7CC6CN7)nc(OC6CCOCC6)nc45)cc3)nn2)cc1 (stereo not shown)
Target: GTPase KRas (KRAS, Homo sapiens, UniProt P01116, G12D)
Action: degrader
Method: western blot
Host: mouse, PK-59 xenograft
Medium: tumour
Notes: unit not given
Reference: β-actin
| dose | time | KRAS G12D level |
| --- | --- | --- |
| 10 mg/kg | 6 h | 0.13 and 0.129 and 0.162 |
| 10 mg/kg | 48 h | 0.0339 and 0.034 and 0.024 |
| 10 mg/kg | 2 h | 0.107 and 0.0843 and 0.075 |
| 30 mg/kg | 72 h | 0.0067 and 0.0043 and 0.005 |
| 10 mg/kg | 24 h | 0.0196 and 0.012 and 0.0182 |
| 30 mg/kg | 144 h | 0.0285 and 0.028 and 0.0127 |

Sample 5
Target: E3 ubiquitin-protein ligase NEDD4, HECT domain (Homo sapiens, UniProt P46934)
Observed: enzyme activity
Action: inhibitor
Method: Ub-TR-FRET
Medium: HECT domain
Tested at: 0.4115 µM
Reading: higher = more chain formation
Target sequence (P46934 938-1319, limits assumed): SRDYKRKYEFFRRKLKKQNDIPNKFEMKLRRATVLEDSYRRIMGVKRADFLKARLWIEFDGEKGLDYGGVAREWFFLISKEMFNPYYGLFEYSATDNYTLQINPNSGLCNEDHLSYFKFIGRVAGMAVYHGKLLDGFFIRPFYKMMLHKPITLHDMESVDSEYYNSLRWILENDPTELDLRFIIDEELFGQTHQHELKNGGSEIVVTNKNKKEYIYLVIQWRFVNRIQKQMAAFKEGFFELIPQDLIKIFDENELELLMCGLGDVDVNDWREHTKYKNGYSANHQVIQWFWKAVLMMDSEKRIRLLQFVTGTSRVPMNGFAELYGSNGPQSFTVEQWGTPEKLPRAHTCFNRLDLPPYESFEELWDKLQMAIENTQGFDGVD
| SMILES | ubiquitin chain formation AUC |
| --- | --- |
| CNC(=O)/C=C/CNCCCN1c2ccccc2CCc2ccc(Cl)cc21.Cl | 131000 a.u. and 133000 a.u. |
| CCOC(=O)/C=C/CN(CC)CCCCN1c2ccccc2CCc2ccc(Cl)cc21.O=C(O)/C=C\C(=O)O | 87000 a.u. and 77400 a.u. and 88800 a.u. and 77900 a.u. and 76700 a.u. and 85600 a.u. |
| N#C/C=C/CNCCCCN1c2ccccc2CCc2ccc(Cl)cc21.O=C(O)/C=C\C(=O)O | 43500 a.u. and 51400 a.u. and 47500 a.u. and 48100 a.u. and 44300 a.u. and 59400 a.u. |
| CCOC(=O)/C=C/CNCCCCN1c2cc(Cl)ccc2C(=O)N(C)c2ccccc21.O=C(O)/C=C\C(=O)O | 81600 a.u. and 84000 a.u. and 80700 a.u. |
| CNC(=O)/C=C/CNCCCCN1c2ccccc2CCc2ccc(Cl)cc21.Cl | 85500 a.u. and 70000 a.u. and 68300 a.u. and 85900 a.u. and 69100 a.u. and 84200 a.u. |
| CCOC(=O)/C=C/CNCCCN1c2ccccc2CCc2ccc(Cl)cc21 | 40600 a.u. and 39100 a.u. and 45500 a.u. |
| COC(=O)CCCNCCCN1c2ccccc2CCc2ccc(Cl)cc21.COC(=O)CCCNCCCN1c2ccccc2CCc2ccc(Cl)cc21.O=C(O)/C=C/C(=O)O | 131000 a.u. and 130000 a.u. |
| CCOC(=O)/C=C/CNCCCCN1c2cc(Cl)ccc2COc2ccccc21.O=C(O)/C=C\C(=O)O | 71100 a.u. and 72700 a.u. and 71700 a.u. |
| CONC(=O)/C=C/CNCCCCN1c2ccccc2CCc2ccc(Cl)cc21.O=C(O)/C=C\C(=O)O | 32400 a.u. and 49500 a.u. and 50500 a.u. and 33400 a.u. and 52100 a.u. |
| CCOC(=O)/C=C/CNCCCCN1c2ccccc2COc2ccc(Cl)cc21.O=C(O)/C=C\C(=O)O | 68800 a.u. and 66400 a.u. and 63600 a.u. |
| CCOC(=O)/C=C/CN(CCCCN1c2ccccc2CCc2ccc(Cl)cc21)C(C)C.O=C(O)/C=C\C(=O)O | 72600 a.u. and 74600 a.u. and 73500 a.u. and 72800 a.u. and 74300 a.u. and 73200 a.u. |
| CN(C)C(=O)/C=C/CNCCCN1c2ccccc2CCc2ccc(Cl)cc21.Cl | 139000 a.u. and 140000 a.u. and 141000 a.u. |

Sample 6
Structure (SMILES): CC[C@@]1(c2ccccc2)C2=C(CC(C)(C)CC2=O)Nc2n[nH]cc21
Tested at: 1 µM
| target | observed | method | reference | remaining binding |
| --- | --- | --- | --- | --- |
| PIK3CA (Homo sapiens, UniProt P42336, H1047L) | binding | competition with immobilised ligand | – | 100% |
| NEK9 (Homo sapiens, UniProt Q8TD19) | kinase binding | KINOMEscan | DMSO control | 100% |
| LATS1 (Homo sapiens, UniProt O95835) | binding | competition with immobilised ligand | – | 93% |
| MAP4K3 (Homo sapiens, UniProt Q8IVH8) | kinase binding | KINOMEscan | DMSO control | 96% |
| PIM3 (Homo sapiens, UniProt Q86V86) | binding | competition with immobilised ligand | – | 100% |
| PTK6 (Homo sapiens, UniProt Q13882) | binding | competition with immobilised ligand | – | 97% |
| EPHA6 (Homo sapiens, UniProt Q9UF33) | kinase binding | KINOMEscan | DMSO control | 100% |
| EGFR (Homo sapiens, UniProt P00533, del747-750/T751S) | kinase binding | KINOMEscan | DMSO control | 88% |
| CDK15 (Homo sapiens, UniProt Q96Q40) | kinase binding | KINOMEscan | DMSO control | 100% |
| HIPK4 (Homo sapiens, UniProt Q8NE63) | kinase binding | KINOMEscan | DMSO control | 100% |
| FLT1 (Homo sapiens, UniProt P17948) | binding | competition with immobilised ligand | – | 99% |
| GAK (Homo sapiens, UniProt O14976) | binding | competition with immobilised ligand | – | 100% |
| TLK2 (Homo sapiens, UniProt Q86UE8) | binding | competition with immobilised ligand | – | 97% |
| Mast/stem cell growth factor receptor Kit, autoinhibited (KIT, Homo sapiens, UniProt P10721) | binding | competition with immobilised ligand | – | 95% |
| MINK1 (Homo sapiens, UniProt Q8N4C8) | binding | competition with immobilised ligand | – | 86% |
| PLK3 (Homo sapiens, UniProt Q9H4B4) | kinase binding | KINOMEscan | DMSO control | 100% |

Sample 7
Compound: CN1CCC[C@H]1COc1nc2c(c(N3CCN(C(=O)C4CC4)[C@@H](CC#N)C3)n1)CCN(c1cccc3cccc(Cl)c13)C2
Observed: binding
Action: competitor
Method: NanoBRET
Cell line: HEK293
KRAS Q61H: GTPase KRas (KRAS, Homo sapiens, UniProt P01116, Q61H)
KRAS G12D: GTPase KRas (KRAS, Homo sapiens, UniProt P01116, G12D)
KRAS Q61R: GTPase KRas (KRAS, Homo sapiens, UniProt P01116, Q61R)
| target | tested at | normalized BRET |
| --- | --- | --- |
| KRAS Q61H | 1.24 µM | 67.3% and 65.6% and 68.1% |
| GTPase KRas (KRAS, Homo sapiens, UniProt P01116, Q61L) | 15.2 nM | 90.4% and 93.6% and 88% |
| GTPase KRas (KRAS, Homo sapiens, UniProt P01116, G13D) | 11.1 µM | 23.2% and 21.6% and 18.3% |
| KRAS Q61H | 3.7 µM | 42% and 50.1% and 42.6% |
| KRAS G12D | 33.3 µM | 39.4% and 31.8% and 29% |
| KRAS Q61H | 11.1 µM | 18.7% and 26.5% and 21.8% |
| KRAS Q61R | 412 nM | 93.1% and 81.7% and 97% |
| KRAS G12D | 15.2 nM | 107% and 103% and 97.3% |
| KRAS Q61R | 33.3 µM | 87.8% and 71.2% and 59.6% |
| KRAS Q61R | 5.08 nM | 91.6% and 99.9% and 87.9% |

Sample 8
Compound: CCN1/C(=C/C=C2\CCCC(/C=C/C3=[N+](CC)c4ccccc4C3(C)C)=C2NCCCCCCCCN2CCC(Nc3nc4ccccc4n3Cc3ccc(F)cc3)CC2)C(C)(C)c2ccccc21
Cell line: U-87 MG
Tested at: concentration not given
Reference: DMSO
| refers to | log2 fold change |
| --- | --- |
| YOD1 mRNA | 1.16 |
| C1orf94 mRNA | -1.56 |
| DLX5 mRNA | -3.81 |
| HDAC9 mRNA | 1.9 |
| ACTL8 mRNA | -3.69 |
| MIS18A mRNA | -1.08 |
| DPYSL3 mRNA | -0.92 |
| FAM78B mRNA | -1.57 |
| RYBP mRNA | 1.08 |
| MAP3K6 mRNA | -1.57 |
| LIN28B mRNA | -1.53 |
| PLA2G4C mRNA | 1.8 |
| DBP mRNA | -1.6 |
| SEMA3A mRNA | 1.75 |
| DAW1 mRNA | -1.97 |
| RHOBTB2 mRNA | -0.865 |

Some of these lines once more (sample 8):
| refers to | log2 fold change |
| --- | --- |
| MIS18A mRNA | -1.08 |
| DPYSL3 mRNA | -0.92 |
| FAM78B mRNA | -1.57 |
| RYBP mRNA | 1.08 |
| MAP3K6 mRNA | -1.57 |
| LIN28B mRNA | -1.53 |
| PLA2G4C mRNA | 1.8 |
| DBP mRNA | -1.6 |
